Experimental data from different studies.
Each line is one published result; not all experiments were run side by side. ± gives the spread as reported.
gag-pol reverse transcriptase: Gag-Pol polyprotein, reverse transcriptase (gag-pol, Human immunodeficiency virus 1, UniProt P03366)

By UniProt entry, the sequences of proteins in these tests, tags left out. Chains listed by the source or under a name are the forms on record and can include a tag or linker. Residues count along the entry.
UniProt O07911, 1-430: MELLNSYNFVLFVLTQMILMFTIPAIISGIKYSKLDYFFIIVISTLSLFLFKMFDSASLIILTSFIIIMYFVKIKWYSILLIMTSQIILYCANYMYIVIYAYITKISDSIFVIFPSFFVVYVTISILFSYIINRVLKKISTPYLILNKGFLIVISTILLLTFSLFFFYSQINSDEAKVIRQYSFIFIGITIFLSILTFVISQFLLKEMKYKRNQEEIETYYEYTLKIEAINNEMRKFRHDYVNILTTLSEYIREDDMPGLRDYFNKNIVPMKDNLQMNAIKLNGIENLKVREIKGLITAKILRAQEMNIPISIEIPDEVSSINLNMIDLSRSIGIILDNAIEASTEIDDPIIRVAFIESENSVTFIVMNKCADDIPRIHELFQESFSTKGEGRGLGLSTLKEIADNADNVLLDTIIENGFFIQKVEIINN
UniProt P37136, 32-614 limits assumed: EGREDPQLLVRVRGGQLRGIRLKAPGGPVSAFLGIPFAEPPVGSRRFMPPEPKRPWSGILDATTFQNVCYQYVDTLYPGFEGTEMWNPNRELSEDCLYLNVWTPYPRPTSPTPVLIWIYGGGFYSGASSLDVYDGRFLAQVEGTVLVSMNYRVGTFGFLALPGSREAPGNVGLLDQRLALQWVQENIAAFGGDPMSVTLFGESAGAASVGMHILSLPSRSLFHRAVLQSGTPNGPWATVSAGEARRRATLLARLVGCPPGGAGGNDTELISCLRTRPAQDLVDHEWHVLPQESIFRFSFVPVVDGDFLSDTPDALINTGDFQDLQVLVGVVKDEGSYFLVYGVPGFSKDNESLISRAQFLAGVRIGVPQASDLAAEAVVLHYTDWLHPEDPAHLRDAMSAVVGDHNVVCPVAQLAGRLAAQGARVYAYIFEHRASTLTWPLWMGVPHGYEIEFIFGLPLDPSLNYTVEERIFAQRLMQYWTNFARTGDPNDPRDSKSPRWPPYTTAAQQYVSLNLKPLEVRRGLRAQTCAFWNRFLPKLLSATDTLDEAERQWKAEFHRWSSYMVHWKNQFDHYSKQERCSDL
UniProt Q9Y2R2, whole entry, looked up: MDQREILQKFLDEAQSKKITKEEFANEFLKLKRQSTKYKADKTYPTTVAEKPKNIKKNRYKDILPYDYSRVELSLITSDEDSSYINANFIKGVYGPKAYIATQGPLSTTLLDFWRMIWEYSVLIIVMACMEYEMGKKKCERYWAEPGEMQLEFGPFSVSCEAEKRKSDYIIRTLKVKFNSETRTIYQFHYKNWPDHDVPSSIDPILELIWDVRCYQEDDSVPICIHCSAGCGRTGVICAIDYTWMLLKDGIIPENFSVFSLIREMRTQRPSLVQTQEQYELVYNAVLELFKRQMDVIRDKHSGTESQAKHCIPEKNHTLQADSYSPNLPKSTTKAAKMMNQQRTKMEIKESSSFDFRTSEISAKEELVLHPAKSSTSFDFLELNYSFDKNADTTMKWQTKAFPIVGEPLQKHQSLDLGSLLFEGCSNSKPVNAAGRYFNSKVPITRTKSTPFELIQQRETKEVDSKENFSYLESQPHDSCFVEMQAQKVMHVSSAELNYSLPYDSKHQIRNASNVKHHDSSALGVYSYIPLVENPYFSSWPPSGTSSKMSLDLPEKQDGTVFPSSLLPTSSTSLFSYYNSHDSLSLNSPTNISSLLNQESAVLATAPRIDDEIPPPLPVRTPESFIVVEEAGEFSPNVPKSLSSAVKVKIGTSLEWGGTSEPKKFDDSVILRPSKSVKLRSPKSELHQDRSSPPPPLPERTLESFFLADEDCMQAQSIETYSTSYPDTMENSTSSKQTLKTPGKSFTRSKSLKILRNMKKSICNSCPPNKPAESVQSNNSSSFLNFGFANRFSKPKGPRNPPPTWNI
UniProt P53041, whole entry: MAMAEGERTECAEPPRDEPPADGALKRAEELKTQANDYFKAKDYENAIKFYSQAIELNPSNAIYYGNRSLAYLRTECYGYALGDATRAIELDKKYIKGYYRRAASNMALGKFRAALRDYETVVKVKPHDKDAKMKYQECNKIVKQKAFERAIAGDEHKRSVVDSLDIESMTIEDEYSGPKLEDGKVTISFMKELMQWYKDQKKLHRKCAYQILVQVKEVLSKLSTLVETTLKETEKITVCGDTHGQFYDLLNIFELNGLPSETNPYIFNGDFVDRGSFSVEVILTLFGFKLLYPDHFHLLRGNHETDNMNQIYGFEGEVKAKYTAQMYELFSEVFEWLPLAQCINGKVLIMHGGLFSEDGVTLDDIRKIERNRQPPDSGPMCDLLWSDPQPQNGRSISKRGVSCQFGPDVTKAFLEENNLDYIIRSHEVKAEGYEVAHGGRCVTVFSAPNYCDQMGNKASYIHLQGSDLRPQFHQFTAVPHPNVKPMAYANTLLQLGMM
UniProt P10636, with tags, fused parts or gaps DEL597-597 limits assumed: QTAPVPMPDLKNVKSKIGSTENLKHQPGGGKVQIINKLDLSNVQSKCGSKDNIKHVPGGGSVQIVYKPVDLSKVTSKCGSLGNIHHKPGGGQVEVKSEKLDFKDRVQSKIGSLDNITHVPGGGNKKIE
UniProt Q08210, whole entry E182D, looked up: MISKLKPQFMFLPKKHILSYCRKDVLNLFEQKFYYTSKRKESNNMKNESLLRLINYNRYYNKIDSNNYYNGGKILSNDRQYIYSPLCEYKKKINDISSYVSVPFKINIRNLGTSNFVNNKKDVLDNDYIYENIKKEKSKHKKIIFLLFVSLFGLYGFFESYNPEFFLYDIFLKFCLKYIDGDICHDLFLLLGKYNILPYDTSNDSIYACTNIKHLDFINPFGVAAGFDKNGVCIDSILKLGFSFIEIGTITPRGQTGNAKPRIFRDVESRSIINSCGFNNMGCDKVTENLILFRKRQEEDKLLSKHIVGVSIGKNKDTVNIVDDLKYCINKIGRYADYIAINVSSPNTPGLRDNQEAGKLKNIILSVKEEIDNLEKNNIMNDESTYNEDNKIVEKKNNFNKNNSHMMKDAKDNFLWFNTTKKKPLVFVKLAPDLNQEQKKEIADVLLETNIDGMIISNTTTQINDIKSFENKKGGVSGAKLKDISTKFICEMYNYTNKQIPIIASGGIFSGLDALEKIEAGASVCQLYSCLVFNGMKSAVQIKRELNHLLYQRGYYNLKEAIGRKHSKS
UniProt P07237, 18-508 limits assumed: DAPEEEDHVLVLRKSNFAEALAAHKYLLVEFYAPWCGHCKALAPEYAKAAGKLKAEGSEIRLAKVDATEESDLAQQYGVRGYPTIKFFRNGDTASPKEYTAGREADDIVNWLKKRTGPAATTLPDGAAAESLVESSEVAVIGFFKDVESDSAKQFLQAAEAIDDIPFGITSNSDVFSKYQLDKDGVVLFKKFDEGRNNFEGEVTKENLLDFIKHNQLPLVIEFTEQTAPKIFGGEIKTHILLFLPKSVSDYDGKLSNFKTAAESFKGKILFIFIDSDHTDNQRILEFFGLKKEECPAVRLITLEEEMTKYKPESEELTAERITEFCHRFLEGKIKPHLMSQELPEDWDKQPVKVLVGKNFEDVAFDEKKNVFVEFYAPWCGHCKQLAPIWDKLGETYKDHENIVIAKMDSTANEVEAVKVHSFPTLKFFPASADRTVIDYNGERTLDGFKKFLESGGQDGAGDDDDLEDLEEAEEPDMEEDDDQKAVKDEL
UniProt P14340, 281-571 limits assumed: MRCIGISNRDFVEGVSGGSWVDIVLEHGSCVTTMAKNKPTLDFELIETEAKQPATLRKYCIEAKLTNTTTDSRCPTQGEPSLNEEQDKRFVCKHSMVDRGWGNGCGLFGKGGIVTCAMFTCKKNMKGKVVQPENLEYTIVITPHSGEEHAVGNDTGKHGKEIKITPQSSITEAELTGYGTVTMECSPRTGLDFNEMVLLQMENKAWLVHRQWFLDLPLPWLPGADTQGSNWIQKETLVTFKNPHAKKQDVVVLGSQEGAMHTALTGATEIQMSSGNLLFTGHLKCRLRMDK
UniProt P05556, 21-798 limits assumed: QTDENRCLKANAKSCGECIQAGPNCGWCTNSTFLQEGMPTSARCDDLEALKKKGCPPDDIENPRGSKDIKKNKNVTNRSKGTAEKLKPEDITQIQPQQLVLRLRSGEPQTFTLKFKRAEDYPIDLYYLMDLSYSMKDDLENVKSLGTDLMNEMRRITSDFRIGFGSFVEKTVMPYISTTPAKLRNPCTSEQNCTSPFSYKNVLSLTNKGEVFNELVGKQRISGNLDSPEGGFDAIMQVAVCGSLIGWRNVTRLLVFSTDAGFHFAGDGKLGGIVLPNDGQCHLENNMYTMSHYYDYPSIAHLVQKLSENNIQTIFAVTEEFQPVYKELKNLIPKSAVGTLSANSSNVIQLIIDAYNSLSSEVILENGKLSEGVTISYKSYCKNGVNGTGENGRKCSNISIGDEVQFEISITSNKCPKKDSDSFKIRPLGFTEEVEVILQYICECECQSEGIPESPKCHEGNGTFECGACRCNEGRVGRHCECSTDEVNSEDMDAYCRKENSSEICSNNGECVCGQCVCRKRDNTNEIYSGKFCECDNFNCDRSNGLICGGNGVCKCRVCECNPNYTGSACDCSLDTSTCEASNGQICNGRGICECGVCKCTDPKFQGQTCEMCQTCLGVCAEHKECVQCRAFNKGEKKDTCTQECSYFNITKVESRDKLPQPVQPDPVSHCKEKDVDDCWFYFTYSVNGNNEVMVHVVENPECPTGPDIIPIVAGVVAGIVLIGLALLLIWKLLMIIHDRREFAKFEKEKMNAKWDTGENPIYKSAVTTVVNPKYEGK
UniProt P17301, 30-1181 limits assumed: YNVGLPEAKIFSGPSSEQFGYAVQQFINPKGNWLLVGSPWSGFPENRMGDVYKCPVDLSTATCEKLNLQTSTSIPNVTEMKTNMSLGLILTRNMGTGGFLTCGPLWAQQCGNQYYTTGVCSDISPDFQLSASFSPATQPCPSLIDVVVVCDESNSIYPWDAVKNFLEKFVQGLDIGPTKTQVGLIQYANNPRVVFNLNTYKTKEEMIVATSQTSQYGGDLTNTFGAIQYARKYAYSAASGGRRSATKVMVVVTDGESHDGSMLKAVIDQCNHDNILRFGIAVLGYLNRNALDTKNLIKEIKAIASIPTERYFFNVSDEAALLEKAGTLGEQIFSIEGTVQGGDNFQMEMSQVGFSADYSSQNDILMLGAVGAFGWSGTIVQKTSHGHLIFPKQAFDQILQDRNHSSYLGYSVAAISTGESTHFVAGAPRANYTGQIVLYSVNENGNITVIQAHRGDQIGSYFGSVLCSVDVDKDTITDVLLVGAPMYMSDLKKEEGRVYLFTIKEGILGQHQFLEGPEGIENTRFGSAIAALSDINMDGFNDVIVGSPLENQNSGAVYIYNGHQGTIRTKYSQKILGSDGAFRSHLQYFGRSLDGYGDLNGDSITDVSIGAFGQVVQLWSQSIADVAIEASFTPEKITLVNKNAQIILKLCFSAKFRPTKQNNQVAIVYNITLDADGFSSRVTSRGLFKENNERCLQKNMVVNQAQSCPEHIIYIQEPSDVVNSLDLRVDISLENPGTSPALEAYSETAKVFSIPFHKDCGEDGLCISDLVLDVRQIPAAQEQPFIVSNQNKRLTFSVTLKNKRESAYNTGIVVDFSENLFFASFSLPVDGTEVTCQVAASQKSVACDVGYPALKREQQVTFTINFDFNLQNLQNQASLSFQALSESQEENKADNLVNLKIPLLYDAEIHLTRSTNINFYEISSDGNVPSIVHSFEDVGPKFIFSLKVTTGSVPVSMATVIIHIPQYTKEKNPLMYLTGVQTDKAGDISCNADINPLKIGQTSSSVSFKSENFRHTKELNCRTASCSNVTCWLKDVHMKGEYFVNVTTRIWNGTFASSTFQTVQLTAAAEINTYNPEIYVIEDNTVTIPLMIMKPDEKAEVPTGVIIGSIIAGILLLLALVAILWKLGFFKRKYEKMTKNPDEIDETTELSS
UniProt Q8NER1, whole entry: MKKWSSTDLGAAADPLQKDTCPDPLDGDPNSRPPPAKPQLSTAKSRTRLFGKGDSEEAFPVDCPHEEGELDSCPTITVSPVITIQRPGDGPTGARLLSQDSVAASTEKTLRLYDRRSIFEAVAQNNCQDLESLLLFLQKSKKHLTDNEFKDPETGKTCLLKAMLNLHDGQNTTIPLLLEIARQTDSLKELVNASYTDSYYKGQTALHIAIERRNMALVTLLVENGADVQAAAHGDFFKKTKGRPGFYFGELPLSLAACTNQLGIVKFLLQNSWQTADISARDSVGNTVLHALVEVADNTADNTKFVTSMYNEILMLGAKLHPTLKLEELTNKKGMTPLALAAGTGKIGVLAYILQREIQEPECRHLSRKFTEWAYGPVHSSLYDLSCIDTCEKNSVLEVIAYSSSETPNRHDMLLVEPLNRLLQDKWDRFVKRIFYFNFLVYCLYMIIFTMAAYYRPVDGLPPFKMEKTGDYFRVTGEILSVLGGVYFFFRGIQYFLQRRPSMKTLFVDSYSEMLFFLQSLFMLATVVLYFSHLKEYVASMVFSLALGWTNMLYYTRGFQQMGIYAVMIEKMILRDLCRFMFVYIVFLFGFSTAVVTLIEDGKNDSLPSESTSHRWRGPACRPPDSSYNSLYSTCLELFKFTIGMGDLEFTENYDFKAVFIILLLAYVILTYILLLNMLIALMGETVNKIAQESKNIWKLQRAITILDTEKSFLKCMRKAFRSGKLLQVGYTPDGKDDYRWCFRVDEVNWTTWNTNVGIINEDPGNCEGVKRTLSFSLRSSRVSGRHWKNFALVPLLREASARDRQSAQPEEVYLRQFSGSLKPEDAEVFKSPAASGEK

Structure (SMILES) = CC(C)C[C@@H]1NC(=O)[C@H](CO)NC(=O)[C@H](CO)NC(=O)[C@@H](NC(=O)CCc2cn(CCOCCOCCOCCOCCOCCOCCOCCO)nn2)CSC(=O)[C@H](Cc2ccccc2)NC1=O; target or system = Receptor-histidine kinase AgrC (agrC, Staphylococcus aureus, UniProt O07911); assay = Agr quorum sensing, antagonist, fluorescence reporter; system = Staphylococcus aureus, agr-deleted reporter strain, solution; setting = added: AIP-I 100 nM; quantity = IC50; result = 3.1 µM
Structure (SMILES) = COP(=O)(OC)Oc1ccc([N+](=O)[O-])cc1Cl; target or system = Acetylcholinesterase (Ache, Rattus norvegicus, UniProt P37136); assay = enzyme activity, inhibitor; system = rat, postnatal day 1, rat brain homogenate; setting = 15 min, 37 °C; quantity = IC50; result = 0.175 µM
Structure (SMILES) = O=S1(=O)CCC(NC(=S)SSC(=S)NC2CCS(=O)(=O)C2)C1 (stereo not shown); target or system = Tyrosine-protein phosphatase non-receptor type 22 (PTPN22, Homo sapiens, UniProt Q9Y2R2); assay = phosphatase activity, inhibitor; setting = pH 6.5, enzyme 5 nM, added: DiFMUP 1.5 µM; quantity = IC50; result = 13 ± 1 µM
Structure (SMILES) = CN1CCN(C(c2ccccn2)c2cc(Cl)c3cccnc3c2O)CC1 (stereo not shown); target or system = Serine/threonine-protein phosphatase 5 (Homo sapiens, UniProt P53041); assay = phosphatase activity, inhibitor; setting = preincubation ~10 min at 23 °C, added: radiolabelled phosphorylase A; quantity = IC50; result = > 50 µM
Structure (SMILES) = Cc1cn([C@@H]2CC[C@H](OC(C(=O)O)P(=O)(O)O)C2)c(=O)[nH]c1=O (relative stereo); target or system = gag-pol reverse transcriptase; assay = reverse transcriptase activity, inhibitor; setting = added: poly(rA)·oligo(dT) template/primer; quantity = IC50; result = 0.4 ± 0.05 µM
Structure (SMILES) = CC[C@H](C)[C@@H]1NC(=O)[C@H](CCC(=O)O)NC(=O)[C@@H]2CCCN2C(=O)[C@H](Cc2c[nH]cn2)NC(=O)[C@H](CCCNC(=N)N)NC(=O)[C@H](C(C)C)NC(=O)[C@H](CC(N)=O)NC(=O)[C@@H]2CSSC[C@H](NC(=O)CN)C(=O)N[C@@H](CSSC[C@@H](C(N)=O)NC1=O)C(=O)N[C@@H](CO)C(=O)N[C@@H](Cc1c[nH]cn1)C(=O)N1CCC[C@H]1C(=O)N[C@@H](C(C)C)C(=O)N2; target or system = Neuronal acetylcholine receptor subunit alpha-7 (Chrna7, Rattus norvegicus, UniProt Q05941); assay = ion current, antagonist, two-electrode voltage clamp; system = Xenopus oocytes; setting = rat, added: ACh 300 µM; quantity = IC50; result = > 10 µM
Structure (SMILES) = CC(C)[C@H](NC(=O)CNC(=O)[C@H](COP(=O)(O)O)NC(=O)[C@@H](NC(=O)[C@H](CCC(=O)O)NC(=O)[C@H](CC(=O)O)NC(=O)CCNC(=O)Cc1cc(=O)oc2cc(N)ccc12)C(C)C)C(=O)N[C@@H](CCCCNc1ccc([N+](=O)[O-])cc1[N+](=O)[O-])C(=O)N[C@@H](CC(=O)O)C(N)=O; target or system = Caspase-3 (CASP3, Homo sapiens, UniProt P42574); assay = substrate; scale = relative to: caspase-3 kcat over caspase-7 kcat; quantity = kcat ratio; result = 2 fold
Structure (SMILES) = CC(C)C[C@@H](NC(=O)[C@@H](CO)NC(=O)[C@@H](Cc1c[nH]cn1)NC(=O)[C@@H](CC(C)C)NC(=O)[C@@H](CCCNC(=N)N)NC(=O)[C@@H](CC(C)C)NC(=O)[C@@H](CC(C)C)NC(=O)[C@H](NC(=O)[C@H]1CCCN1C(=O)[C@@H](C)N)[C@H](C)O)C(=O)NCC(=O)N[C@H](C)C(=O)O; target or system = Microtubule-associated protein tau, repeat domain ΔK280 (MAPT, Homo sapiens, UniProt P10636, del597-597); assay = aggregation, inhibitor, thioflavin S fluorescence; setting = 24 h, pH 7.0, 37 °C, added: heparin; quantity = IC50; result = 5.9 µM
Structure (SMILES) = N=C(N)c1ccc(C(NC(=O)COCC(=O)NCCCOCCOCCOCCCNC(=O)CCCC[C@@H]2SC[C@@H]3NC(=O)N[C@@H]32)P(=O)(Oc2ccccc2)Oc2ccccc2)cc1 (stereo partly shown); target or system = Prothrombin (F2, Homo sapiens, UniProt P00734); assay = enzyme activity, inhibitor, fluorogenic substrate; setting = 4 h preincubation, pH 8.0, added: 0.5 nM enzyme; quantity = IC50; result = 0.097 ± 0.01 µM
Structure (SMILES) = O=C(CSc1nccn1C1CCCCC1)Nc1cc(C(F)(F)F)ccc1Cl; target or system = Dihydroorotate dehydrogenase (quinone), mitochondrial (PFF0160c, Plasmodium falciparum, UniProt Q08210, E182D); assay = enzyme activity, inhibitor, DCIP colorimetric; quantity = IC50; result = > 10 µM
Structure (SMILES) = CCOc1ccc(C2C(C#N)=C(N)Oc3c2c(C)nn3-c2ccc(Cl)cc2)cc1 (stereo not shown); target or system = Vero E6; assay = MTT; setting = 25 µM; quantity = viability; result = 47%
Structure (SMILES) = Fc1ccc(Nc2nc3nonc3nc2Nc2cccc(C(F)(F)F)c2)cc1; target or system = Protein disulfide-isomerase (P4HB, Homo sapiens, UniProt P07237); quantity = IC50; result = 292 µM
Structure (SMILES) = Cc1cc(I)cc(C)c1Oc1ccnc(Nc2ccc(C#N)cc2)n1; target or system = gag-pol reverse transcriptase; assay = dGTP incorporation opposite C (mismatch), inhibitor; setting = 15 min, 37 °C, added: dNTP 5 µM; quantity = IC50; result = 0.009 ± 0.003 µM
Structure (SMILES) = Cc1nn(-c2ccc(Cl)cc2)c2c1C(c1ccc([N+](=O)[O-])cc1)C(C#N)=C(N)O2 (stereo not shown); target or system = Vero E6; assay = MTT; setting = 25 µM; quantity = viability; result = 62.3%
Structure (SMILES) = Cc1nc2c(C(=O)N(C)Cc3ccccc3)c[nH]n2c(=O)c1Cc1ccc(Cl)cc1; target or system = Genome polyprotein, envelope domains I-II (Dengue virus type 2, UniProt P14340); quantity = IC50; result = > 10 µM
Structure (SMILES) = N#Cc1c(-c2ccc(Cl)cc2Cl)n(-c2nc(-c3ccc(Cl)cc3)c3c(NC(=O)c4ccccc4)nnc-3[nH]2)[nH]c1=O; target or system = UACC-62; assay = SRB; quantity = CC50; result = > 100 µM
Structure (SMILES) = C[C@@H]1NC(=O)[C@H](CCC(=O)O)NC(=O)CNC(=O)[C@H](CC(=O)O)NC(=O)CNC(=O)[C@H](CCCCN)NC(=O)[C@@H](Cc2ccc(O)cc2)NC1=O [isotope labelled]; target or system = Integrin alpha2/beta1 (Homo sapiens, UniProt P05556+P17301); assay = binding, competitive cell binding; system = CL1-5; setting = 1 h, pH 7.4, room temperature, added: 68Ga-DOTA-A2B1; quantity = IC50; result = 4.23 ± 0.25 µM
Structure (SMILES) = CCCCC(CCCC)Oc1nc(C(F)(F)F)ccc1CNC(=O)C(C)c1ccc(NS(C)(=O)=O)c(F)c1 (stereo not shown); target or system = Transient receptor potential cation channel subfamily V member 1 (TRPV1, Homo sapiens, UniProt Q8NER1); assay = ion current, antagonist, FLIPR; system = CHO cells expressing TRPV1; setting = added: low pH; quantity = IC50; result = 1 to 10 µM
Structure (SMILES) = CCOC(=O)c1c(-c2ccc(Cl)cc2Cl)n(-c2nc(-c3ccc(Cl)cc3)c3c(NC(=O)c4ccccc4)nnc-3[nH]2)[nH]c1=O; target or system = TK-10; assay = SRB; quantity = CC50; result = 6.9 µM

A few entries again:
Structure (SMILES) = COP(=O)(OC)Oc1ccc([N+](=O)[O-])cc1Cl; target or system = Acetylcholinesterase (Ache, Rattus norvegicus, UniProt P37136); assay = enzyme activity, inhibitor; system = rat, postnatal day 1, rat brain homogenate; setting = 15 min, 37 °C; quantity = IC50; result = 0.175 µM
Structure (SMILES) = Cc1nn(-c2ccc(Cl)cc2)c2c1C(c1ccc([N+](=O)[O-])cc1)C(C#N)=C(N)O2 (stereo not shown); target or system = Vero E6; assay = MTT; setting = 25 µM; quantity = viability; result = 62.3%
